Measurements from different studies.
Several values in a cell are separate wells, animals, samples, runs or records. Numbers after ± are the reported error.
ALB: Albumin (ALB, Homo sapiens, UniProt P02768)
ABCB1: ATP-dependent translocase ABCB1 (ABCB1, Homo sapiens, UniProt P08183)
UniProt P05177, sequence (whole entry, looked up): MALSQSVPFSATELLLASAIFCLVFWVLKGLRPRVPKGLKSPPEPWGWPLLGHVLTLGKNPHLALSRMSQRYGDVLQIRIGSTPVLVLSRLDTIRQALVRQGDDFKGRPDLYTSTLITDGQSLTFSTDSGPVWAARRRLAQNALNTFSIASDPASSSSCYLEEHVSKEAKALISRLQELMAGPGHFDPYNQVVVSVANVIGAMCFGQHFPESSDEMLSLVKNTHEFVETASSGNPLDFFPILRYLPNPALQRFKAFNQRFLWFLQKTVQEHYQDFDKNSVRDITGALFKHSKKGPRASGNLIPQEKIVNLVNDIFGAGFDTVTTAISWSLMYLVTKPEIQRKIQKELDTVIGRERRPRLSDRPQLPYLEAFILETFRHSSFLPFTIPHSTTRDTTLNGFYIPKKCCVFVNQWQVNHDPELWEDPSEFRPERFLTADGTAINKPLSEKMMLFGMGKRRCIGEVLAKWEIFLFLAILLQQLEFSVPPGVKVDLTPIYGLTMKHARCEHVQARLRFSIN
UniProt P08183, sequence (whole entry, looked up): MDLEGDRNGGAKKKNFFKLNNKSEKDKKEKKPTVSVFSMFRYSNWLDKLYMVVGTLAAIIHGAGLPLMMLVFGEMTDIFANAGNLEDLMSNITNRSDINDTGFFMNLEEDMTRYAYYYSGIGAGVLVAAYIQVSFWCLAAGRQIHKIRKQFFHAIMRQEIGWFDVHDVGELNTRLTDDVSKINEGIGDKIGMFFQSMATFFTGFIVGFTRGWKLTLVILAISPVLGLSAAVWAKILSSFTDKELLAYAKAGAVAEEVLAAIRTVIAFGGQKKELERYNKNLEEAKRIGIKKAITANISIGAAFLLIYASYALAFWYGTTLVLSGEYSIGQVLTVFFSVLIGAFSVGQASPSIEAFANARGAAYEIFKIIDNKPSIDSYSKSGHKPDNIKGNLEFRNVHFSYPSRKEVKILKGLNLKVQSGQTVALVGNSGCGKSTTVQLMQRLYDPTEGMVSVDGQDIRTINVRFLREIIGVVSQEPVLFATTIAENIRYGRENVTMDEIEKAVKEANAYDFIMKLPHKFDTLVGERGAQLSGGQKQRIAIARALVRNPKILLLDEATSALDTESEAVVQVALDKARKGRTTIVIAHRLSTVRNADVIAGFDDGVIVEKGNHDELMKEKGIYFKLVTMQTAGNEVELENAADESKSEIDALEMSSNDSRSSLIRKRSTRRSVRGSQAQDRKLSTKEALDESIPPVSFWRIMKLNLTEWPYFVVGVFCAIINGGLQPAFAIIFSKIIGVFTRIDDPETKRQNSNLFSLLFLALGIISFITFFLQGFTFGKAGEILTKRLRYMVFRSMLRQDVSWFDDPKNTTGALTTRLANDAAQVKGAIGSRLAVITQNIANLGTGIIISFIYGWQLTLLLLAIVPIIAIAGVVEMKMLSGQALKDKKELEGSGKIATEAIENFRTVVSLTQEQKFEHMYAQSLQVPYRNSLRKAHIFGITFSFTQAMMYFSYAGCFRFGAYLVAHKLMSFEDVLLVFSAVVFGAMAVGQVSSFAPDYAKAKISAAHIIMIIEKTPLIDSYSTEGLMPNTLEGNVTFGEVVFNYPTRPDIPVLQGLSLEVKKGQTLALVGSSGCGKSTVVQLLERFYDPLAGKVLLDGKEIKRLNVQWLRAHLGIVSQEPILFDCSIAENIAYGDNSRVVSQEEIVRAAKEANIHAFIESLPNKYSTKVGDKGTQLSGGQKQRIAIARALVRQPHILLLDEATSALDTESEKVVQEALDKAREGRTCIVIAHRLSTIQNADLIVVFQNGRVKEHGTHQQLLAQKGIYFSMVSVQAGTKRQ
UniProt P27487, sequence (whole entry, looked up): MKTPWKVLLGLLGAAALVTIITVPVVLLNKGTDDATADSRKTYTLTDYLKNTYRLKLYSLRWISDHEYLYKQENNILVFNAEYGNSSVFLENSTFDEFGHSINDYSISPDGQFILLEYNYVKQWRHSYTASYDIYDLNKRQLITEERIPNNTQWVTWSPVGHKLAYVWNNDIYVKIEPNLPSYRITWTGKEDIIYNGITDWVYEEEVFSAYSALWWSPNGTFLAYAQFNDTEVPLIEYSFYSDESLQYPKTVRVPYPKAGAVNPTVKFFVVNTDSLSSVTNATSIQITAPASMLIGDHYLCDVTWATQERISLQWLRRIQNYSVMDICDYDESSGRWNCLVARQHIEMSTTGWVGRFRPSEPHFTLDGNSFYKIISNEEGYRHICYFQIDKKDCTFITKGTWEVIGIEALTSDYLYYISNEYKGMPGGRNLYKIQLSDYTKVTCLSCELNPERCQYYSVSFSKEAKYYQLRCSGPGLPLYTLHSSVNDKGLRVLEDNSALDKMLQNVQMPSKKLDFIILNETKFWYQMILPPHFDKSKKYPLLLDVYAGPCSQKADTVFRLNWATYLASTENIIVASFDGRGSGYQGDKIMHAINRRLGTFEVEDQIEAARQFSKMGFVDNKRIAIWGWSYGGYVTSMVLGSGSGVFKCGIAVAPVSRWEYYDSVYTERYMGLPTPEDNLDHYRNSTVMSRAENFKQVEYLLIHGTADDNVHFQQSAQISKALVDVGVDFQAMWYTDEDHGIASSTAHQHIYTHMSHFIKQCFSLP

Compound | target or system | assay | system | setting | scale | quantity | value
CNC(=O)C1CCCN(C(=O)C2CC3CCC2N3C(=O)[C@@H]2C[C@@H](O)CN2C(=O)NCc2cccc(Cl)c2F)C1 (mixture of isomers) | Cytochrome P450 1A2 (CYP1A2, Homo sapiens, UniProt P05177) | preincubation without NADPH | human | 1.85 µM | reference: negative control | remaining activity | 92.1% and 103% and 100%
CN1CCN(c2ccc3[nH]c(-c4ccc5[nH]c(-c6ccc(OCCCCNC(=O)c7ccc8c(c7)C7(OC8=O)c8ccc(N(C)C)cc8C(C)(C)c8cc(N(C)C)ccc87)cc6)nc5c4)nc3c2)CC1 | ALB | – | PBS | 1 µM, 1 h, together with: 25 mg/mL albumin | – | fluorescence quantum yield | 0.236 ± 0.009
C=C(NC(=O)c1csc(-c2nc3c(cc2O)-c2nc(cs2)C(=O)NC(C(C)O)C(=O)NC(=C(C)OC)c2nc(cs2)C(=O)NC2c4nc(cs4)C(=O)NC(COC(=O)c4c5c6c(cccc6n4O)COC(=O)C(OC4CC(C)(O)C(N(C)C)C(C)O4)C2OC5)c2nc-3cs2)n1)C(N)=O (stereo not drawn) | – | – | cynomolgus monkey, plasma | intravenous, 1 mg/kg, single dose, infusion | – | half-life | 315 min
C[C@@]1(F)[C@H](O)[C@@H](CO)O[C@H]1n1cnc2c(=O)[nH]c(N)nc21 | ABCB1 | bidirectional transport | LLC-PK1, human MDR1, transfected with | 10 µM, together with: zosuquidar 1 µM | – | Papp A to B | 13.3 ± 0.8 ×10⁻⁶ cm/s
C=CC(=O)N1CC2C(=O)N(CCN(C)C)c3c(c4cc(Cl)c(-c5c(O)cccc5F)nc4n(-c4c(C)ccnc4C(C)C)c3=O)N2CC1C (stereo not drawn) | ABCB1 | – | MDCK-MDR1 | – | – | Papp A-B | 2.1 ×10⁻⁶ cm/s
CC(C)OCCOCc1ccc(OCC(O)CN(N=O)C(C)C)cc1 (stereo not drawn) | Salmonella typhimurium | Ames test | TA100 | 50 µg/plate, without metabolic activation | reference: solvent control | revertant fold increase | 0.8 fold
CN1CCN(c2ccc3[nH]c(-c4ccc5[nH]c(-c6ccc(OCCCCNC(=O)c7ccc8c(c7)C(=O)OC87c8ccc(N(C)C)cc8[Si](C)(C)c8cc(N(C)C)ccc87)cc6)nc5c4)nc3c2)CC1 | ALB | – | PBS | 1 µM, 1 h, together with: 25 mg/mL albumin | – | fluorescence quantum yield | 0.079 ± 0.007
COC1CN([C@H]2CC[C@H]([C@@]3(C)Oc4c(Cl)cc(C(=O)NCc5c(SC)cc(C)[nH]c5=O)c(C)c4O3)CC2)C1 | – | RNA-seq, item: MAP7 mouse homolog | mouse, HT-1376 xenograft, whole blood | dose not given | reference: vehicle | log2 fold change | 0.771
CCCCCCCC/C=C/CCCCCCCC(=O)[O][Pt-2]1([OH])([Cl])([NH+]=C(CC)N(C)CCNc2c3ccccc3[nH+]c3ccccc23)[NH2+]CCC[NH2+]1.O=[N+]([O-])[O-].O=[N+]([O-])[O-] | human serum albumin recombinant | – | FBS-free medium | together with: HSA 10-fold excess | – | protein-bound fraction | > 95%
CNc1nc(N)nc2c1ncn2[C@@H]1O[C@H](CO[P@](=O)(O)N[C@@H](C)C(=O)O)[C@@H](O)[C@@]1(C)F | ABCB1 | bidirectional transport | LLC-PK1, human MDR1, transfected with | 10 µM | – | Papp A to B | 5.62 ± 0.51 ×10⁻⁶ cm/s
Cc1ncsc1-c1ccc(C(C)NC(=O)C2CC(O)CN2C(=O)C(NC(=O)CCCCCCCCCCN2CCCC(Nc3ncc(Cl)c(Nc4ccccc4S(=O)(=O)C(C)C)n3)C2)C(C)(C)C)cc1 (stereo not drawn) | 22Rv1 | RNA-seq, item: ZNF446 mRNA | – | concentration not given | reference: DMSO | log2 fold change | -1.47
CNc1nc(N)nc2c1ncn2[C@@H]1O[C@H](CO)[C@@H](O)[C@@]1(C)F | ABCB1 | bidirectional transport | LLC-PK1, human MDR1, transfected with | 10 µM | – | efflux ratio | 1.73 ± 0.13
CC[C@H](C)[C@H](NC(=O)[C@H](Cc1ccccc1)NC(=O)[C@H](CCC(=O)O)NC(=O)[C@H](CCCCN)NC(=O)[C@H](C)NC(=O)[C@H](C)NC(=O)[C@H](CCC(N)=O)NC(=O)CNC(=O)[C@H](CCC(=O)O)NC(=O)[C@H](CC(C)C)NC(=O)[C@H](Cc1ccc(O)cc1)NC(=O)[C@H](CO)NC(=O)[C@H](CO)NC(=O)[C@@H](NC(=O)[C@H](CC(=O)O)NC(=O)[C@H](CO)NC(=O)[C@@H](NC(=O)[C@H](Cc1ccccc1)NC(=O)[C@@H](NC(=O)CNC(=O)[C@H](CCC(=O)O)NC(=O)[C@H](C)NC(=O)[C@@H](N)Cc1c[nH]cn1)[C@@H](C)O)[C@@H](C)O)C(C)C)C(=O)N[C@@H](C)C(=O)N[C@@H](Cc1c[nH]c2ccccc12)C(=O)N[C@@H](CC(C)C)C(=O)N[C@H](C(=O)N[C@@H](CCCNC(=N)N)C(=O)NCC(=O)N[C@@H](CCCNC(=N)N)C(=O)NCC(=O)O)C(C)C | Dipeptidyl peptidase 4 (DPP4, Homo sapiens, UniProt P27487) | HPLC-UV | Tris-HCl | 0.1 mM, 1 h, pH 7.4, 37 °C, together with: DPP4 16 nM | – | remaining peptide | 9.2%
C=CC(=O)Nc1cccc(Cn2ncc3cnc(Nc4cnn(CCOC)c4)nc32)c1 | TBK1 human | binding, KINOMEscan | – | 100 nM | lower = stronger binding | percent of control | 27%
CN1CCN(c2ccc3[nH]c(-c4ccc5[nH]c(-c6ccc(OCCCCNC(=O)c7cccc8c7C(=O)OC87c8ccc(N(C)C)cc8[Si](C)(C)c8cc(N(C)C)ccc87)cc6)nc5c4)nc3c2)CC1 | ALB | – | PBS | 1 µM, 1 h, together with: 25 mg/mL albumin | – | fluorescence quantum yield | 0.003 ± 0.004

For quick reference, copied from above:
Compound | target or system | assay | system | setting | scale | quantity | value
CCCCCCCC/C=C/CCCCCCCC(=O)[O][Pt-2]1([OH])([Cl])([NH+]=C(CC)N(C)CCNc2c3ccccc3[nH+]c3ccccc23)[NH2+]CCC[NH2+]1.O=[N+]([O-])[O-].O=[N+]([O-])[O-] | human serum albumin recombinant | – | FBS-free medium | together with: HSA 10-fold excess | – | protein-bound fraction | > 95%
CNc1nc(N)nc2c1ncn2[C@@H]1O[C@H](CO[P@](=O)(O)N[C@@H](C)C(=O)O)[C@@H](O)[C@@]1(C)F | ABCB1 | bidirectional transport | LLC-PK1, human MDR1, transfected with | 10 µM | – | Papp A to B | 5.62 ± 0.51 ×10⁻⁶ cm/s
